Results gathered from unrelated publications.
Each numbered part is a random draw from the data of one study; scales do not carry over between parts.
UniProt P47898, sequence (whole entry, looked up): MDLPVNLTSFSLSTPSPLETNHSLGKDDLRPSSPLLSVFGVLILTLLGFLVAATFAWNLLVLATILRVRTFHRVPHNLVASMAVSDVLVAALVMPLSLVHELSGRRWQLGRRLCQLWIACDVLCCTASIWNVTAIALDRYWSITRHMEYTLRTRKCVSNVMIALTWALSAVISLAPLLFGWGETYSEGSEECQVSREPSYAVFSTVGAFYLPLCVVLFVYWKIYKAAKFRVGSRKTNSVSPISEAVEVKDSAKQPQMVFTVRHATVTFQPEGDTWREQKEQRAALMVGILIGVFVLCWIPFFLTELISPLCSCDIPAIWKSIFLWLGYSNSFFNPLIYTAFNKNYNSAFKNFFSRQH

Series 1
Target: Myosin-IIIb (MYO3B, Homo sapiens, UniProt Q8WXR4)
UniProt Q8WXR4, sequence (whole entry, looked up): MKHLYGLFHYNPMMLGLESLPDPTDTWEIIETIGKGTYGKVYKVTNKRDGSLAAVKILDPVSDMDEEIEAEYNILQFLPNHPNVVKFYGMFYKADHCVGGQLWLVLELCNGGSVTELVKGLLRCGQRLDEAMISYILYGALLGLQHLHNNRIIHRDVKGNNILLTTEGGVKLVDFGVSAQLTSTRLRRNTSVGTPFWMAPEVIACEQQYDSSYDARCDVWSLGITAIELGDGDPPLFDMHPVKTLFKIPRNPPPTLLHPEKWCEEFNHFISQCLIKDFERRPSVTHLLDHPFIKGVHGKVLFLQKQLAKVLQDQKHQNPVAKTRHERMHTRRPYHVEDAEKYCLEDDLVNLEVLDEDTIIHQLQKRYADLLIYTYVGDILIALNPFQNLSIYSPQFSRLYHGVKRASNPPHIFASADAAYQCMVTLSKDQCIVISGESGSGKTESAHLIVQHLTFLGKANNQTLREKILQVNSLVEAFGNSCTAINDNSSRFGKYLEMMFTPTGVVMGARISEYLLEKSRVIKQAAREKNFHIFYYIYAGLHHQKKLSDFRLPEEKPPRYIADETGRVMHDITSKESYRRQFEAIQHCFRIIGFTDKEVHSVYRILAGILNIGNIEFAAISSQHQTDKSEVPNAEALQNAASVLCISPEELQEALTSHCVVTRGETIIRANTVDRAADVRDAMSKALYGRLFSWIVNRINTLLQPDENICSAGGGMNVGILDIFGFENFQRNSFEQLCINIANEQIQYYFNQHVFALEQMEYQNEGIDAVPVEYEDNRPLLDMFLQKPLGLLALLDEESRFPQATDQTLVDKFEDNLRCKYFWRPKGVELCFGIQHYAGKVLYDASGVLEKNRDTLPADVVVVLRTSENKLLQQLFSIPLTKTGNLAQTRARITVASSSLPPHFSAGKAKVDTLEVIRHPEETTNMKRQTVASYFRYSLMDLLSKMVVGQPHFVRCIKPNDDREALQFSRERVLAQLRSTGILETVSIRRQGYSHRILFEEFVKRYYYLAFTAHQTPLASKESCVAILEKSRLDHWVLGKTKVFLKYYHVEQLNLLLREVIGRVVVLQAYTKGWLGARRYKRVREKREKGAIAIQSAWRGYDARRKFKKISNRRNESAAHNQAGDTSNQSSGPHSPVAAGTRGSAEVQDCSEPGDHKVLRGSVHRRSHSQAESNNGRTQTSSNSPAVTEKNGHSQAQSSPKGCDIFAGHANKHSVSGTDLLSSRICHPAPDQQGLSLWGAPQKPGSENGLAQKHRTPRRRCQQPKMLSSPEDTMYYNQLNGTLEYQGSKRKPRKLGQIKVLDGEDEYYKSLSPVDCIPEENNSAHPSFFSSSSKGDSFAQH
Read-out: enzyme activity
Mode: inhibitor
Tested at: 0.5 µM
Baseline: control
Quantity: remaining activity
Nc1ccc2ncnc(NCCc3ccc(Oc4ccccc4)cc3)c2c1: 96.6%
NCCNc1ncc(C(N)=O)c(Nc2cccc(C(F)(F)F)c2)n1: 90.3%
O=C1NC(=O)C(c2cn(CCCn3ccnc3)c3ccccc23)=C1Nc1ccccc1: 36%
Oc1ccc(-c2nc(-c3ccncc3)c(-c3ccc(F)cc3)[nH]2)cc1: 101%
Cc1ccc(NC(=O)c2ccc(CN3CCN(C)CC3)cc2)cc1Nc1nc(-c2cccnc2)cs1: 82.6%
COc1cc2ncnc(Nc3ccc(F)c(Cl)c3)c2cc1OCCCN1CCOCC1: 91.4%
Cc1ccc(Nc2nccc(N(C)c3ccc4c(C)n(C)nc4c3)n2)cc1S(N)(=O)=O: 83.4%
Cc1cccc(-c2[nH]c(C(C)(C)C)nc2-c2ccc3c(c2)OCO3)n1: 79.2%
C#Cc1cccc(Nc2ncnc3cc(OCCOC)c(OCCOC)cc23)c1: 84.4%
CCOC(=O)c1c(C)[nH]c(/C=C2\C(=O)Nc3ccccc32)c1C: 74.1%

Series 2
Target: RING finger protein unkempt homolog, zinc fingers 1-6, GST-SBP tag (UNK, Homo sapiens, UniProt Q9C0B0, residues 30-357)
Technique: RNA Bind-n-Seq
Form: RNA
Sample: in vitro
Tested at: not given
Setting: RNA with constant flanks, human and mouse sites, ends assumed
Baseline: input RNA pool
Reading: higher = stronger binding
Quantity: bound/input enrichment
All sequences stand within: GGGAGUUCUACAGUCCGACGAUC … CAACAGAGGAUUGAGCAUCA
Residues (chain): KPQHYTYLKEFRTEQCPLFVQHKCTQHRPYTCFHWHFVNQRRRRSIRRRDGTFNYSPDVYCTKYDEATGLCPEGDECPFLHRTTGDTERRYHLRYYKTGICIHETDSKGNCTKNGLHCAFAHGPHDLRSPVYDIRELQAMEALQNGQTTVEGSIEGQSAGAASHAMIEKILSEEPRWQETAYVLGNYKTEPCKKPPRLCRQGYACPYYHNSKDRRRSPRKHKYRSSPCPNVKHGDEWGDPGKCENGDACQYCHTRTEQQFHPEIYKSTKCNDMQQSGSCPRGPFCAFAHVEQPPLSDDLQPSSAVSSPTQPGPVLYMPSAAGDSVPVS
ACCAUGAUGGAGGGUCAACUGAUCUCCGUAGCAGCCAGGGCAAAGUGAAUGACCUCAGAAACUAGGAAUUCUUGCAAAGACACUGCCUAAUAGUGUGAUUUUGAAACCUUGAUACAAAAG: 0.442 ratio
CAGACACUACAGCUGGAUUUCUUGAUGAAAAUCUUGCCAAAUUACCACCACCUAAAGAAGACUAUGAAAGGAAGCUCAACUCCAGUAAAGAACUAAGAACAGUGUAUAACAUGAAGAUAA: 0.502 ratio
UUACCUUUAUAAUGUAGCAGUGAAGUAAAUCAUUUUAGAACUUAAUAUCCAACUGAUCAUAGUACAUAUUGUAAAUAAAAUGUAUUUUGAUGACAGCUCAGUUGAAUAUGGAUAAUAUGU: 3.27 ratio
GGCAAAGUACAACAGCUGCCUAAAUACACCUCUCAAAUAGUGGGUAGAUUUAUUAAGCCUCUCAGCAAUGCUUACCAUGAGUUAGCACAAGUUUAUUCAACCAACAACCCGUCUGAGCUG: 0.341 ratio
AAUCUUAAGCUUGCAACUGAACUCCCUGAUGCUGAACUUAGGAGGACUUUAUGGUCUUUAGUAGCUUUCCCAAAACUCAAACGGCAAGUUUUGUUGUAUGAACCUCAAGUCAACUCACCC: 0.389 ratio
AGUUGUGUGGCCCACAAUGCCCUGGAGUGUGCACGAGCCAUAUAUGCCUAUGCCCUACAAGUCUUCCCCAGCAAGAAAAGUGUGUGGUUACGAGCUGCCUACUUUGAGAAGAAUCAUGGU: 0.157 ratio
GUAUGGUAUAUAUGGUAUGUAUACCAUGUACACACGUUACAUUGAGUAUGAAUGACUGUGGUUGGAAACACACACACACACUCAAGUCUGUAAAUAUCCUUCCUCACUGAAACCUGUGCU: 0.0916 ratio
AUUUUACAUGUUCCAGAUGGAAAGGGAAGUCUAAGCGCUUUUUAAAACAAUUUUUUUUUGUAUUUAAUUAAGCAAUUGCAGUUAUCUGGGAUUUUUGGGUCAGAAUUUUAAAUUCUGUUU: 0.138 ratio

Series 3
Target: ATP-dependent RNA helicase DDX3X, helicase core (DDX3X, Homo sapiens, UniProt O00571, residues 132-607)
UniProt O00571, sequence (132-607, looked up): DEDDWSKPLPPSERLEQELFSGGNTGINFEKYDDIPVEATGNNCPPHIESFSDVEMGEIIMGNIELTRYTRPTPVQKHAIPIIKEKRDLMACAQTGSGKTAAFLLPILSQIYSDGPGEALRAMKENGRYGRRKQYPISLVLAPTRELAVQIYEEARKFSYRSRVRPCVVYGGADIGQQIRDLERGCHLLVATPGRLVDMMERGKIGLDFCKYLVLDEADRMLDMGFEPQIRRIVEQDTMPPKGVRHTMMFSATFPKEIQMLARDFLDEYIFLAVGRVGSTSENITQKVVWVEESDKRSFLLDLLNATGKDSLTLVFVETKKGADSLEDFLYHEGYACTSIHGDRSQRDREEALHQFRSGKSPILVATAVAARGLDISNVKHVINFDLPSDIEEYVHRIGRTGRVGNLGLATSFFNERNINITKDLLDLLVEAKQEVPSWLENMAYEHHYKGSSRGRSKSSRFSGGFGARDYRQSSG
Technique: RNA Bind-n-Seq
Form: RNA
Sample: in vitro
Tested at: not given
Setting: 4-mer, random 30-nt RNA, single round
Added: RocA, ADP, phosphate
Baseline: input library
Reading: higher = stronger binding
Quantity: 4-mer enrichment
GUGA: 1.43 fold
AGGU: 1.15 fold
UAAU: 0.933 fold
GACC: 0.718 fold
AGCG: 1.2 fold
CCGU: 0.75 fold
CAGG: 0.998 fold
CCCC: 1.04 fold

Further values, each from its own experiment
O=C1NC(c2ccccn2)Sc2ccccc21 (stereo not drawn)
inhibition (5-hydroxytryptamine receptor 5A (HTR5A, Homo sapiens, UniProt P47898); ligand displacement; 10 µM): 1.92%

A few entries again (series 3):
UAAU: 0.933 fold
AGCG: 1.2 fold
